# Published values from different studies.
# Each line is one published result; not all experiments were run side by side. ± marks the error that the study gave.
# Matrix: plasma
SMILES,assay,test system,conditions,AUC(0-inf)
CC(=O)N[C@H]1CC[C@H](NC(=O)CN2CCN(c3nncc(-c4ccc(C)cc4)n3)CC2)CC1,,men aged ≥65 years,"oral, 100 mg single dose, study",4730 ng·h/mL
CC[C@H](C)CCCCC(=O)N[C@@H](CCN)C(=O)N[C@H](C(=O)N[C@@H](CCN)C(=O)N[C@H]1CCNC(=O)[C@H]([C@@H](C)O)NC(=O)[C@H](CCN)NC(=O)[C@H](CCN)NC(=O)[C@H](CC(C)C)NC(=O)[C@@H](Cc2ccccc2)NC(=O)[C@H](CCN)NC1=O)[C@@H](C)O,,mild renal insufficiency patients,"IV, 0.75 mg/kg, geometric least squares mean",20700 ng·h/mL
C[C@H]1CN(C(=O)CC#N)[C@]12CCN(c1ncnc3[nH]ccc13)C2,,healthy Japanese males,"oral, 5 mg single dose",175 ng·h/mL
C[C@@H](N)C1CCN(S(=O)(=O)c2cccc3cnccc23)CC1,,"healthy volunteers, fasted","oral, 150 mg",36.2 ng·h/mL
Oc1ccc([C@@H](O)c2cc(-c3ncnc4cc(N5CCOCC5)ccc34)c(F)cc2Cl)nn1,geometric mean,healthy volunteers,"oral, 100 mg, fasted oral suspension",524 ng·h/mL
COc1cc(C(=O)NC2CCN(C)CC2)c(F)cc1Nc1ncc(C(F)(F)F)c(Oc2cccc3c2C(=O)N(C)C3)n1,,cancer patients,"oral, 10 mg single dose, cycle 1 day 1, geometric mean",0.527 µM·h
CCCCCCCCCCCCCCCC(=O)N[C@@H](CCC(=O)NCCCC[C@@H]1NC(=O)[C@H]([C@@H](C)CC)NC(=O)[C@@H](NC(=O)[C@@H]2CCCN2C(=O)[C@H](Cc2ccccc2)NC(=O)[C@H](Cc2c[nH]cn2)NC(=O)[C@@H](NC(=O)[C@H](CC(=O)O)NC(=O)CC(C)C)[C@@H](C)O)CSSC[C@@H](C(=O)N[C@@H](CCCCN)C(N)=O)NC(=O)CNC(=O)[C@H](CCCCN)NC(=O)[C@H](CO)NC(=O)[C@H](CCCNC(=N)N)NC(=O)[C@@H]2CCCN2C(=O)[C@H](CCC(=O)O)NC(=O)[C@H](Cc2ccccc2)NC1=O)C(=O)O,,healthy volunteers,"subcutaneous, 30 mg single, lyophilised formulation",26400 ± 6800 ng·h/mL
CCc1nc2c(C)cc(N3CCN(CC(=O)N4CC(O)C4)CC3)cn2c1N(C)c1nc(-c2ccc(F)cc2)c(C#N)s1,,"healthy volunteers, fed","oral, 600 mg single dose, day 1, suspension",53500 ng·h/mL
CS(=O)(=O)c1ccc([C@@H](O)[C@@H](CF)NC(=O)C(Cl)Cl)cc1,,chicken (Arbor Acres),"oral, 20 mg/kg, added: quercetin 20 mg/kg pretreatment",44600 ± 4710 ng·h/mL
